Results from different studies.
Each line is one published result; not all experiments were run side by side. Several values in a cell are separate wells, animals, samples, runs or records. ± marks the error that the study gave. Values after ≈ are worked out from the molar mass of the structure shown.

Compound	organism	assay	system	setting	how to read	measurement	result
COc1ccc(-c2cc(C(F)(F)F)c3c(N)c(C(=O)Nc4cccc(C)c4OC)sc3n2)cc1	Mycobacterium tuberculosis	growth inhibition	H37Rv LepB under-expressing	–	–	IC50	> 100 µM
CCC(C)(O)c1ccc(OCCc2cccc(F)c2)c(C(N)=O)c1 (stereo not shown)	Mycobacterium tuberculosis	growth	H37Rv-LP	120 h	–	IC90	24 ± 1.7 µM
N#Cc1cncc(Cn2c(=S)[nH]c3ccc(Cl)cc3c2=O)c1	Mycobacterium tuberculosis	–	PptT conditional knockdown	–	–	MIC90	0.39 µM (≈ 0.128 µg/mL)
Cc1nc(-c2ccc(OCCc3cccc(F)c3)c(C(N)=O)c2)cs1	Mycobacterium tuberculosis	growth	H37Rv-LP	120 h	–	IC90	3.1 ± 0.1 µM
COc1ccc(-c2cc(C(F)(F)F)c3c(N)c(C(=O)NC45CC6CC(CC(O)(C6)C4)C5)sc3n2)cc1	Mycobacterium tuberculosis	growth inhibition	H37Rv LepB under-expressing	–	–	IC50	> 100 µM
NC(=O)c1cc(-c2ccoc2)cc(F)c1OCCc1cccc(F)c1	Mycobacterium tuberculosis	–	H37Rv-LP	–	baseline: HepG2 CC50 over Mtb IC90	selectivity index	2
COc1ccc(-c2cc(C(F)(F)F)c3c(N)c(C(=O)Nc4cc(C)cc(C)c4)sc3n2)cc1	Mycobacterium tuberculosis	–	H37Rv wild type	–	baseline: HepG2 IC50 over M. tuberculosis IC90	selectivity index	< 1
COCc1cc2[nH]c(=S)n(Cc3cccnc3)c(=O)c2cc1Cl	Mycobacterium tuberculosis	–	PptT conditional knockdown	–	–	MIC90	0.82 µM (≈ 0.285 µg/mL)
CC(=O)c1ccc(OCCc2cccc(F)c2)c(C(N)=O)c1	Mycobacterium tuberculosis	growth	H37Rv-LP	120 h	–	IC90	3.6 ± 0.38 µM
CC(C)C(=O)OCc1cc2[nH]c(=S)n(Cc3cncc(C(N)=S)c3)c(=O)c2cc1Cl	Mycobacterium tuberculosis	–	PptT conditional knockdown	–	–	MIC90	0.353 µM (≈ 0.163 µg/mL)
COc1ccc(-c2cc(C)c3c(N)c(C(=O)Nc4cccc(C)c4C)sc3n2)cc1	Mycobacterium tuberculosis	growth inhibition	H37Rv LepB under-expressing	–	–	IC50	> 100 µM
Cc1ccc(Cn2c(=S)[nH]c3ccc(Cl)cc3c2=O)cn1	Mycobacterium tuberculosis	–	PptT conditional knockdown	–	–	MIC90	> 25 µM
OC(Cn1cncn1)(Cn1cncn1)c1ccc(F)cc1F	Saccharomyces cerevisiae	cell growth	Pdr5 deleted, Cdr1 overexpressed	2^3.322 µg/mL	–	OD600	0.969 and 0.989 and 0.965
COc1ccc(-c2cc(C(F)(F)F)c3c(N)c(C(=O)NCc4ccccc4)sc3n2)cc1	Mycobacterium tuberculosis	growth inhibition	H37Rv LepB under-expressing	–	–	IC50	> 100 µM
CC(O)c1ccc(OCCc2cccc(F)c2)c(C(N)=O)c1 (stereo not shown)	Mycobacterium tuberculosis	–	H37Rv-LP	–	baseline: HepG2 CC50 over Mtb IC90	selectivity index	> 16
CC(c1cccnc1)n1c(=S)[nH]c2ccc(Cl)cc2c1=O (stereo not shown)	Mycobacterium tuberculosis	intracellular growth	THP-1 macrophages, H37Rv-GFP	–	–	maximum growth inhibition	~72%
Cc1cccc(NC(=O)c2sc3nc(-c4ccco4)cc(C(F)(F)F)c3c2N)c1C	Mycobacterium tuberculosis	–	H37Rv wild type	120 h	–	IC90	inactive
CC(C)C(=O)OCc1cc2[nH]c(=S)n(Cc3cccnc3)c(=O)c2cc1Cl	Mycobacterium tuberculosis	–	PptT conditional knockdown	–	–	MIC90	0.46 µM (≈ 0.186 µg/mL)
CNC(=O)c1cc(C)ccc1OCCc1ccc(C2CC2)cc1	Mycobacterium tuberculosis	–	H37Rv-LP	–	baseline: HepG2 CC50 over Mtb IC90	selectivity index	278

For quick reference, copied from above:
Compound	organism	assay	system	setting	how to read	measurement	result
CC(C)C(=O)OCc1cc2[nH]c(=S)n(Cc3cccnc3)c(=O)c2cc1Cl	Mycobacterium tuberculosis	–	PptT conditional knockdown	–	–	MIC90	0.46 µM (≈ 0.186 µg/mL)
Cc1cccc(NC(=O)c2sc3nc(-c4ccco4)cc(C(F)(F)F)c3c2N)c1C	Mycobacterium tuberculosis	–	H37Rv wild type	120 h	–	IC90	inactive
